Measurements from different studies.
Every numbered part comes from another study and shows a few of its results, in no order.

Sample 1
Target: Histone acetyltransferase KAT6A, both winged helices, GST fusion (KAT6A, Homo sapiens, UniProt Q92794, residues 1-181)
Method: protein binding microarray
Form: double-stranded DNA, one strand shown
Matrix: in vitro
Concentration: not given
Setting: 8-mer, flanks averaged, mean of 2 arrays, mostly near background
Reference: not given
Direction: higher = stronger binding
Construct (chain): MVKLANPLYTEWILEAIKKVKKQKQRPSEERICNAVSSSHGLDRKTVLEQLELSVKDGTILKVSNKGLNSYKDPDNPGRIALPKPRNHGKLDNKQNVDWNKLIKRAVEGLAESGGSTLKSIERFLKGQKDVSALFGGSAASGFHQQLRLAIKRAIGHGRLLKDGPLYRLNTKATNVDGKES
| Strand | E-score |
| --- | --- |
| GGGTCGAC | -0.0117 |
| CGGTCATC | 0.159 |
| TGCGACCA | 0.0193 |
| CAGGGCTA | -0.134 |
| CAGACACC | -0.0291 |
| ACAGGCAT | -0.061 |
| ATCAGAAA | -0.118 |

Sample 2
Target: Ras GTPase-activating protein-binding protein 1, full length (G3BP1, Homo sapiens, UniProt Q13283)
Sequence of UniProt Q13283 (whole entry, looked up): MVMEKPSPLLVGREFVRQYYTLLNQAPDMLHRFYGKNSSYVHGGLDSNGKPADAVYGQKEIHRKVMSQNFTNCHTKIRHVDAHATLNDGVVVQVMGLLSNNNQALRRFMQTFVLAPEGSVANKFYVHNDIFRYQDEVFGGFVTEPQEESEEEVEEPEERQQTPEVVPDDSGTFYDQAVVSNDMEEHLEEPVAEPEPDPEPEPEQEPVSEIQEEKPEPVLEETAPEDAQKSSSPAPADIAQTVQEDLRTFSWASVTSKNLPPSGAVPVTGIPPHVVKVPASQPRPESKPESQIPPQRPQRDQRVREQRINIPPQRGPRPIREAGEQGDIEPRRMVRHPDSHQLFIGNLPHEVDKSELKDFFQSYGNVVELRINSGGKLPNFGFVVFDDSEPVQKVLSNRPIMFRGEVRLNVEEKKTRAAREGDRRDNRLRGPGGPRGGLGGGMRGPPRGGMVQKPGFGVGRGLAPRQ
Method: RNA Bind-n-Seq
Form: RNA
Matrix: in vitro
Concentration: 200 nM
Setting: whole 134-nt RNA, ends assumed
Together with: 150 mM LiCl
Reference: input library
Direction: higher = stronger binding
Each molecule: 7-deaza-guanosine replaces G
| Strand | log2 enrichment |
| --- | --- |
| GGGAGUUCUACAGUCCGACGAUCUGGCCCUGGUGGCAUGCGGGGAGGAAGAGGUGGCCUCAUGGAUCGUGGUGGUCCCGGUGGAAUGUUCAGAGGUGGCCGUGGCGGAGACAGUGGAAUUCUCGGGUGUCAAGG | -0.11 |
| GGGAGUUCUACAGUCCGACGAUCUUACGAUUAUAUCACCCGGACACACAUCAUGCUUAAGAUUCAACUGGGAGCAUACCAGGGAUGCUCUCUAACGUAAUCAAGGGAAGGUUCUGGAAUUCUCGGGUGUCAAGG | -1.03 |
| GGGAGUUCUACAGUCCGACGAUCGCAGGAAGUAAAAACAAAUGCAAAUGCUUCGGAUAGUGGCAGGGGUGGGGGUUGCUAAGGAAAGGGUGGGAUGGGAGUGGGUAAAGAGUUUGGAAUUCUCGGGUGUCAAGG | -0.225 |
| GGGAGUUCUACAGUCCGACGAUCAAGUCCUGUGCUACACAUCGUAUGUACCGAAUCGGAAAAGGAAAAGGGGAAAAGGGGAAAGUAUUAUGUUACGCCGUUCGGAUCUGCACUUGGAAUUCUCGGGUGUCAAGG | 0.51 |

Sample 3
Target: RNA binding protein fox-1 homolog 2, RRM domain, GST-SBP tag (RBFOX2, Homo sapiens, UniProt O43251-10, residues 100-194)
Method: RNA Bind-n-Seq
Form: RNA
Matrix: in vitro
Concentration: 365 nM
Setting: natural RNA segment, single round, ends assumed
Reference: no-protein control
Direction: higher = stronger binding
Shared flanks, not repeated: GGGAGUUCUACAGUCCGACGAUC … UGGAAUUCUCGGGUGCCAA
Residues (chain): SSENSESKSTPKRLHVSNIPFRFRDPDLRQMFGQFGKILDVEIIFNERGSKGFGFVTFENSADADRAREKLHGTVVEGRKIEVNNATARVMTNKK
| Strand | RBNS enrichment (R) |
| --- | --- |
| ACGACAUGCUUUUGACUCAGUAUGACUGGAAGAGUUUUGGACCACUGAAUCCUGUCUUAAUUAAAAGAACCAGAAACCUUCUAUAUGCCCACCCUGGAAACUGUUCCCCC | 0.505 |
| AAGACGUGCUAAUUUAUUGUGGAAUUGGUAGUUUGCUUUUCAUGCCCCUGUCUUCCUUCUCAUGACCAUUUCCCCCUUUCUGUCUGGCUUGCAUUAUUGAUUUCCAGGAC | 1.46 |
| AUUUAUAAGCUCUAAGUAAUCAGCUUUAUCUAAUUUGAGGGCAUUAAAAUUACUGCCUAGAACUUUGAGAAGAGAAAAAUUCAGGGAUAAGUUGAAAGGCACUGGAACUG | 0.353 |
| AGGAGACUACACUUUAAAUCGACCUGACAGAUUUUGAGAAAAACAGCAGCUUCGCACAAUACCAAAGUUUUAAAGUUGGUGAUAAAAAGUCUUUUUAUGAACUAAAUAUU | 0.384 |
| AAAACUCUAGCGCAUCUUCUGGCACGGUUUUAACAACGUGUUUGUGUUGAAUUUCCUUUUUAUGCAUCAAACGAAGGCCAUAUUGUCCAUAAAUGCUCAGUGCUCAGGAU | 1.16 |
| UGCACAGCCCUGAGACCCCACUGGACUGCUGCUCCUUAGCUGGUCUAAAUAGAGCUUCUCUGUCCGAUUUGGCUCUUGUAUGGUCUGUCAUUGUUGGGCAAGAAGGGGAA | 2.34 |

Other studies, line by line
| Molecule | target | assay | test system | conditions | how to read | quantity | value |
| --- | --- | --- | --- | --- | --- | --- | --- |
| PhoQ, residues 284 288 289 292 302 303 SSCLAV | PhoP, residues 12 14 15 18 19 SEGLL (Escherichia coli, UniProt P23836) | Sort-seq, item: YFP reporter | E. coli | PhoQ-PhoP variant library, together with: 10 µM Mg2+ | reference: high Mg2+ state, higher = stronger signaling | fold induction | 15 |

Repeated from above (sample 3):
| Strand | RBNS enrichment (R) |
| --- | --- |
| ACGACAUGCUUUUGACUCAGUAUGACUGGAAGAGUUUUGGACCACUGAAUCCUGUCUUAAUUAAAAGAACCAGAAACCUUCUAUAUGCCCACCCUGGAAACUGUUCCCCC | 0.505 |
| AUUUAUAAGCUCUAAGUAAUCAGCUUUAUCUAAUUUGAGGGCAUUAAAAUUACUGCCUAGAACUUUGAGAAGAGAAAAAUUCAGGGAUAAGUUGAAAGGCACUGGAACUG | 0.353 |
